Measurements gathered from unrelated publications.
Numbered parts are unrelated; each lists some results of a single study. Values joined by “and” are separate records of one study, mostly repeats; a detail may differ.
UniProt Q08345, sequence (whole entry, looked up): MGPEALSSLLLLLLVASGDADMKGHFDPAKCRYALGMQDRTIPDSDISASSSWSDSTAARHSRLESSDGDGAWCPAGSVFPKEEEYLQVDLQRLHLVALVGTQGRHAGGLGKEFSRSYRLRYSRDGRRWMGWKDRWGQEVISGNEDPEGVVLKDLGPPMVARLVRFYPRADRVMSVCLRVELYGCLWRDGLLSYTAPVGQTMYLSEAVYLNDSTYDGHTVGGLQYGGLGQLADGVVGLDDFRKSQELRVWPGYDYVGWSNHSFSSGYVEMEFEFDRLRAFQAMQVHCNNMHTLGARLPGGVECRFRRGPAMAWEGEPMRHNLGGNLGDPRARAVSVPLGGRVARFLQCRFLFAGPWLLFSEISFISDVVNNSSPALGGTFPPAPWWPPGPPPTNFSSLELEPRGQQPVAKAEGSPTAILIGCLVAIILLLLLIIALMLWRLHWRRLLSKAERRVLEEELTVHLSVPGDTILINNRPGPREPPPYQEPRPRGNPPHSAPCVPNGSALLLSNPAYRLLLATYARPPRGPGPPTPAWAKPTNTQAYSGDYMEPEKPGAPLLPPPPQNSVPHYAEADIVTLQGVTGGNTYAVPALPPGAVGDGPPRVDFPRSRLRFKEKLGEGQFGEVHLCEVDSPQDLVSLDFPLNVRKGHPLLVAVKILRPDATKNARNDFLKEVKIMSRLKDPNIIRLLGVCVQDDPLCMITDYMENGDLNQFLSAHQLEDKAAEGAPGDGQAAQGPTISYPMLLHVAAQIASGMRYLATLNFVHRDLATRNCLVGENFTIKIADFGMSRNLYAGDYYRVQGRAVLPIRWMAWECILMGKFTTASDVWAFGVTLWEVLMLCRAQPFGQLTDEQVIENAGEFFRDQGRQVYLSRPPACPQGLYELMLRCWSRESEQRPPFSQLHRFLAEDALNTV
UniProt P07948, sequence (whole entry, looked up): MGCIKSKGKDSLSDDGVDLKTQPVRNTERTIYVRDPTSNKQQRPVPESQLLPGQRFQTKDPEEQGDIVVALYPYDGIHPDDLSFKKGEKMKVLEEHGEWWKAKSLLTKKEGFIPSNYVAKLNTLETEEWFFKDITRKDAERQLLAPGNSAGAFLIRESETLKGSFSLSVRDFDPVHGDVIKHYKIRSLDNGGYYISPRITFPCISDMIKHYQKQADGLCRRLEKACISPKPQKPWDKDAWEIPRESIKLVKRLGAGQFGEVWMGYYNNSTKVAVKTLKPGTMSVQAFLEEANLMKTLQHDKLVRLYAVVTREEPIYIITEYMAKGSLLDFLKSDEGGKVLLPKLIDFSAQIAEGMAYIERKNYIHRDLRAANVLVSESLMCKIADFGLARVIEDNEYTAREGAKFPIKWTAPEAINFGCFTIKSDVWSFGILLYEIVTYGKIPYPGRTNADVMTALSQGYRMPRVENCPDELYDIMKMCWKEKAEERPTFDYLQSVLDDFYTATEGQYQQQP
UniProt Q02763, sequence (whole entry, looked up): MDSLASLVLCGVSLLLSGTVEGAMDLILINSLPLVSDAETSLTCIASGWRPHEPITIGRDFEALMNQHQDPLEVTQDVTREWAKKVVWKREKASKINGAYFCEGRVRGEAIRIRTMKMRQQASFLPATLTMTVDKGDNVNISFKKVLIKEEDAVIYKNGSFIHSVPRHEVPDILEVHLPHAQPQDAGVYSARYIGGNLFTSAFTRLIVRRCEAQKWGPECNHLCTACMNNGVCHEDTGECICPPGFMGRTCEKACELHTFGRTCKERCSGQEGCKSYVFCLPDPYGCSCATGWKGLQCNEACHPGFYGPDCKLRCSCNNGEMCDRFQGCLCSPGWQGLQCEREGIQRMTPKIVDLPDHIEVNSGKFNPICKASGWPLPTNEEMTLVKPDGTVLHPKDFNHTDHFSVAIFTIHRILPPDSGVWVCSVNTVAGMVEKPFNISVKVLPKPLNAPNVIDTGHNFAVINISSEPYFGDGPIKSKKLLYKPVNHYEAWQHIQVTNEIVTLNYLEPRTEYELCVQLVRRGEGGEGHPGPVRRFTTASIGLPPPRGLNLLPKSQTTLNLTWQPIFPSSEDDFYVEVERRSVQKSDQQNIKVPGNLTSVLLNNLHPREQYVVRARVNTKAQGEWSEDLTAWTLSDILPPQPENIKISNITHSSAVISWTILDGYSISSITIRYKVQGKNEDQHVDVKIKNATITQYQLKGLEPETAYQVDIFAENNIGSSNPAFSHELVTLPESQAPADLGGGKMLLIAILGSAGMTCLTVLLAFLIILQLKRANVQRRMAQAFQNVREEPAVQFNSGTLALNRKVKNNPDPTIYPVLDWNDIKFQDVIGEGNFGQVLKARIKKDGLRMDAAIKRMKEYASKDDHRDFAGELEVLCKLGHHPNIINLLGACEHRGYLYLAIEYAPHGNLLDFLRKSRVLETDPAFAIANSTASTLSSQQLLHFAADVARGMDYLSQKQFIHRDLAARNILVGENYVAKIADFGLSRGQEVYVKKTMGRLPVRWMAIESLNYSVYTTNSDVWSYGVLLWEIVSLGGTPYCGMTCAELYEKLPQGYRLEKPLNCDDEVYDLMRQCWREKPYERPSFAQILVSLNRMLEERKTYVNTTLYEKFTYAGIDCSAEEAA
UniProt Q16832, sequence (whole entry, looked up): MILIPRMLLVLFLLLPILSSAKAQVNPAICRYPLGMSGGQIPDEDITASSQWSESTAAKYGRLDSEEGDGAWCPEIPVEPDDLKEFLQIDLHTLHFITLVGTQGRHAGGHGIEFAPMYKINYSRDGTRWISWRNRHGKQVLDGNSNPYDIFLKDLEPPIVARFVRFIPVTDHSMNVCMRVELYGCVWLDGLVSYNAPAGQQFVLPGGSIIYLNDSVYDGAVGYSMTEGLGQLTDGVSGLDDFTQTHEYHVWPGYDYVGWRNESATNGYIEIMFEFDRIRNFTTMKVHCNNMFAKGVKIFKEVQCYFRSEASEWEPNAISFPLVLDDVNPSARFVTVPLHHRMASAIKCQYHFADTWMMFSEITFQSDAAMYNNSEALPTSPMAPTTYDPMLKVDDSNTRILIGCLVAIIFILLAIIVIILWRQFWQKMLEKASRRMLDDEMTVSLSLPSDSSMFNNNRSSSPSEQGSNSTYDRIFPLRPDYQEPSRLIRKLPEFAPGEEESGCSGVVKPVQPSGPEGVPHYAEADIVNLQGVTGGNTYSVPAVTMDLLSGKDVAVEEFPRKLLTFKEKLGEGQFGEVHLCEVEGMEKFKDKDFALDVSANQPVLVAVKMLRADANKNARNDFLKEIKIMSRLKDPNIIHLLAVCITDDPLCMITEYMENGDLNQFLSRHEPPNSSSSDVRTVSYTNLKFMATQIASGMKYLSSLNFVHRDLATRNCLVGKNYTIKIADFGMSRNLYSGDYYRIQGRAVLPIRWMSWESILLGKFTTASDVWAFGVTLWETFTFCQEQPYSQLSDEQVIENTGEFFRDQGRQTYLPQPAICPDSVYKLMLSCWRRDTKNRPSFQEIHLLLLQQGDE
UniProt O15197, sequence (whole entry, looked up): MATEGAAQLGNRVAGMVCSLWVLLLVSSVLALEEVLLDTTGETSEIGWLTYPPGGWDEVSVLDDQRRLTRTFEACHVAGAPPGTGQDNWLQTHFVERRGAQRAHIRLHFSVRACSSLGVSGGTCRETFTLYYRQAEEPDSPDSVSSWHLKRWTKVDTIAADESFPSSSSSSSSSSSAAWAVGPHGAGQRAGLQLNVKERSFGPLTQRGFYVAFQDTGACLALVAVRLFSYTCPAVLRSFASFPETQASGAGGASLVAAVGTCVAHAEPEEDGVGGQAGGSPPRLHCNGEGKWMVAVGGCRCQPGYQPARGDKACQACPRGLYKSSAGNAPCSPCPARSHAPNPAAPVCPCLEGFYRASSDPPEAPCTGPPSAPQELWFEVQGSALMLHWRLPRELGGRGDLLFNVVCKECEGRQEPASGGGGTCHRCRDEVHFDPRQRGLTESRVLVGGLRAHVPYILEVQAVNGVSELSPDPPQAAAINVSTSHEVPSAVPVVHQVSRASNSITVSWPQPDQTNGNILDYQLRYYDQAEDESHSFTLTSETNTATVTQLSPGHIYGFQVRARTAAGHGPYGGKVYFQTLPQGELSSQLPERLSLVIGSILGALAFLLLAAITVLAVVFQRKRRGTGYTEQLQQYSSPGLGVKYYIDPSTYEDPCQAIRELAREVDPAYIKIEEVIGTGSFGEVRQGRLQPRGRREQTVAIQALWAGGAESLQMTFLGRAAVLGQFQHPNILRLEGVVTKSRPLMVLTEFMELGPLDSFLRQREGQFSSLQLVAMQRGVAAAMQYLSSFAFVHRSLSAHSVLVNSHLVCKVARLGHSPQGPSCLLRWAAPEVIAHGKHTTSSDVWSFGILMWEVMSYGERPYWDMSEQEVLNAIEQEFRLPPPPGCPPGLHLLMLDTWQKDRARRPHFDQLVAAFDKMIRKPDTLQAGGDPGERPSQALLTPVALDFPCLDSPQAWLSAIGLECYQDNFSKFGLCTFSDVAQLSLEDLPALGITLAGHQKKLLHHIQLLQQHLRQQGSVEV
UniProt Q9NY57, sequence (whole entry, looked up): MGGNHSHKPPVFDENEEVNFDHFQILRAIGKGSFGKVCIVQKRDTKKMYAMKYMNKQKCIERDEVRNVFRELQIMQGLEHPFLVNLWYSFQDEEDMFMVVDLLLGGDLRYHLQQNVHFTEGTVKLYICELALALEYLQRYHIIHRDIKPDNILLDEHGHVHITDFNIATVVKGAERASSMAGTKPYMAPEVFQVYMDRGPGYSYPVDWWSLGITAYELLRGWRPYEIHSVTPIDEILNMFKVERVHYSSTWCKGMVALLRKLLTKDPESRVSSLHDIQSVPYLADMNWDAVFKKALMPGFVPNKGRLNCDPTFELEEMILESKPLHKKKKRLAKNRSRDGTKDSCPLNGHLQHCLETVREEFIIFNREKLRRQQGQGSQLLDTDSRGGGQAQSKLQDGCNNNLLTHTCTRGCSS

Sample 1
SMILES: Cc1cc(C)c(-n2ccn3nc(-c4cccnc4)cc23)cc1NC(=O)c1cc(C#N)cc(S(F)(F)(F)(F)F)c1
Read-out: target engagement
Method: NanoBRET
Matrix: live cells
target | EC50
Tyrosine-protein kinase Lyn (LYN, Homo sapiens, UniProt P07948) | 7310 nM and 6550 nM and 8460 nM
Discoidin domain-containing receptor 2 (DDR2, Homo sapiens, UniProt Q16832) | 0.519 nM and 0.651 nM and 0.456 nM
Ephrin type-B receptor 6 (EPHB6, Homo sapiens, UniProt O15197) | 9410 nM and 13500 nM
Epithelial discoidin domain-containing receptor 1 (DDR1, Homo sapiens, UniProt Q08345) | 1.36 nM and 2.05 nM and 1.18 nM
Angiopoietin-1 receptor (TEK, Homo sapiens, UniProt Q02763) | 1.72 nM and 1.18 nM and 2.14 nM

Sample 2
SMILES: O=C(Nc1ccccc1)Nc1cccc(Oc2ccc3nccn3n2)c1
Tested at: 1 µM
target | method | refers to | notes | relative to | remaining binding
Serine/threonine-protein kinase D2 (PRKD2, Homo sapiens, UniProt Q9BZL6) | competitive binding panel | – | – | vehicle | 93%
Leukocyte tyrosine kinase receptor (LTK, Homo sapiens, UniProt P29376) | competitive binding panel | – | – | vehicle | 100%
Serine/threonine-protein kinase MARK2 (MARK2, Homo sapiens, UniProt Q7KZI7) | competitive binding panel | – | – | vehicle | 61%
Serine/threonine-protein kinase ICK (CILK1, Homo sapiens, UniProt Q9UPZ9) | competitive binding scan | – | – | – | 100%
Epidermal growth factor receptor (EGFR, Homo sapiens, UniProt P00533, L858R/T790M) | competitive binding panel | – | – | vehicle | 100%
Misshapen-like kinase 1 (MINK1, Homo sapiens, UniProt Q8N4C8) | competitive binding | – | MINK | – | 87%
Activin receptor type-1B (ACVR1B, Homo sapiens, UniProt P36896) | competitive binding panel | – | – | vehicle | 100%
Bone morphogenetic protein receptor type-1A (BMPR1A, Homo sapiens, UniProt P36894) | competitive binding panel | – | – | vehicle | 100%
Dual specificity protein kinase CLK2 (CLK2, Homo sapiens, UniProt P49760) | competitive binding panel | – | – | vehicle | 100%
Receptor-interacting serine/threonine-protein kinase 4 (RIPK4, Homo sapiens, UniProt P57078) | competitive binding panel | – | – | vehicle | 100%
Tyrosine-protein kinase Fgr (FGR, Homo sapiens, UniProt P09769) | competitive binding panel | – | – | vehicle | 82%
Serine/threonine-protein kinase 17B (STK17B, Homo sapiens, UniProt O94768) | competitive binding panel | DRAK2 | – | vehicle | 99%
Serine/threonine-protein kinase 32B (STK32B, Homo sapiens, UniProt Q9NY57) | competitive binding panel | YANK2 | – | vehicle | 71%

Sample 3
Structure (SMILES): COc1cc(C(=O)N2CCC(N3CCN(C)CC3)CC2)ccc1Nc1ncc2c(n1)N(C)c1ccccc1C(=O)N2C
Method: KINOMEscan
Tested at: 10 µM
Relative to: DMSO control
Direction: lower = stronger binding
target | binding [%]
ERK3 | 100
PIP5K1A | 90
MYO3B | 83
SNRK | 94
CLK2 | 72
SBK1 | 100
RIPK4 | 74
CAMK2G | 47
TGFBR1 | 100

Sample 4
Target: Lymphokine-activated killer T-cell-originated protein kinase (PBK, Homo sapiens, UniProt Q96KB5)
Read-out: enzyme activity
Action: inhibitor
Tested at: 0.5 µM
Relative to: control
Target sequence (Q96KB5 1-322): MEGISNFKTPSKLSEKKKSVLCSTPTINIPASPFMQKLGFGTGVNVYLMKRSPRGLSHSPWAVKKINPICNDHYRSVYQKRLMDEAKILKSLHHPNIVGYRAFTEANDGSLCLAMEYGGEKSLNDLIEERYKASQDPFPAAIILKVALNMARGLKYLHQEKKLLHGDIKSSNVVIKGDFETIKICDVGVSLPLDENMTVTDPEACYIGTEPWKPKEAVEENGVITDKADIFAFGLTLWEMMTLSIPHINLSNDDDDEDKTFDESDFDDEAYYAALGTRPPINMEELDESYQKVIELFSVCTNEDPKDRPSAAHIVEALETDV
SMILES | remaining activity
COc1cc2ncnc(Nc3ccc(O)c(Br)c3)c2cc1OC | 101%
c1ccc(-c2cnc(Nc3ccc(OCCN4CCCC4)cc3)s2)cc1 | 108%
CN([C@@H](Cc1ccc(OS(=O)(=O)c2cccc3cnccc23)cc1)C(=O)N1CCN(c2ccccc2)CC1)S(=O)(=O)c1cccc2cnccc12 | 99.2%
O=c1cc(-c2cccc3c2Sc2ccccc2S3)oc(N2CCOCC2)c1 | 99.4%
CN(C)C[C@H]1CCn2c(c(C3=C(c4cn(C)c5ccccc45)C(=O)NC3=O)c3ccccc32)C1 | 101%
CCN(CC)CCNC(=O)c1c(C)[nH]c(/C=C2\C(=O)Nc3ccc(Cl)cc32)c1C | 104%
Nc1cccc(-c2cc3c(Oc4cccc(O)c4)ncnc3[nH]2)c1 | 93.9%
CCOc1nc(NC(=O)Cc2cc(OC)ccc2OC)cc(N)c1C#N | 116%
Cc1nc2cc3nc(-c4cccs4)cnc3cc2n1C | 98.9%
N#Cc1c(NC(=O)c2cccc3ccccc23)sc2c1CCCC2 | 116%
C[C@@H]1CCN(C(=O)CC#N)C[C@@H]1N(C)c1ncnc2[nH]ccc12 | 102%
O=C(NC(NC(=S)Nc1ccc(F)c([N+](=O)[O-])c1)C(Cl)(Cl)Cl)C(c1ccccc1)c1ccccc1 (stereo not shown) | 116%
COc1cc2ncnc(Nc3cccc(Cl)c3)c2cc1OC | 70.9%
COc1cc2c(cc1OC)-c1[nH]nc(Nc3cccc(F)c3)c1C2 | 86.8%
c1ccc(-c2[nH]ncc2-c2ccnc3ccccc23)nc1 | 91.9%
O=C1C(Cl)=C(N2C(=O)CCC2=O)C(=O)c2ccccc21 | 106%
N#C/C(=C\c1ccc(O)c(O)c1)C(=O)NCc1ccccc1 | 84.2%
O=C(Nc1cccc(Nc2nccc(Nc3cccc(C(F)(F)F)c3)n2)c1)C1CC1 | 101%
CCN(CC)CCNC(=O)c1c(C)[nH]c(/C=C2\C(=O)Nc3ccc(F)cc32)c1C | 106%
Cn1nc2c3c(cccc31)C(=O)c1ccccc1-2 | 108%
O=C1c2ccccc2-c2n[nH]c3cccc1c23 | 89.1%
CCN(CC)C(=O)c1ccc(Nc2nc(OCC3CCCCC3)c3[nH]cnc3n2)cc1 | 116%
Ic1cccc(CSc2nnc(-c3ccncc3)o2)c1 | 62.7%
Cc1cn(-c2cc(NC(=O)c3ccc(C)c(Nc4nccc(-c5cccnc5)n4)c3)cc(C(F)(F)F)c2)cn1 | 103%
Cc1cc2ncc(-c3ccccc3)nc2cc1C | 94.5%

Some of these lines once more (sample 2):
target | method | refers to | notes | relative to | remaining binding
Serine/threonine-protein kinase ICK (CILK1, Homo sapiens, UniProt Q9UPZ9) | competitive binding scan | – | – | – | 100%
Serine/threonine-protein kinase D2 (PRKD2, Homo sapiens, UniProt Q9BZL6) | competitive binding panel | – | – | vehicle | 93%
Receptor-interacting serine/threonine-protein kinase 4 (RIPK4, Homo sapiens, UniProt P57078) | competitive binding panel | – | – | vehicle | 100%
Misshapen-like kinase 1 (MINK1, Homo sapiens, UniProt Q8N4C8) | competitive binding | – | MINK | – | 87%
Bone morphogenetic protein receptor type-1A (BMPR1A, Homo sapiens, UniProt P36894) | competitive binding panel | – | – | vehicle | 100%
